Measurements pooled from the literature.
“And” joins repeats or separate records; there may be more than shown. ± marks the error that the study gave.

`CCCC[C@H](NC(=O)CNC(=O)CNC(=O)[C@H](CCCCNC(=O)[C@H](CCN)NC(=O)C(C)c1ccc(CC(C)C)cc1)NC(=O)CN1CCN(CC(=O)O)CCN(CC(=O)O)CCN(CC(=O)O)CC1)C(=O)N[C@H]1CC(=O)NCCCC[C@@H](C(N)=O)NC(=O)[C@H](Cc2c[nH]c3ccccc23)NC(=O)[C@H](CCCNC(=N)N)NC(=O)[C@@H](Cc2ccccc2)NC(=O)[C@H](Cc2c[nH]cn2)NC1=O` (some centres unmarked) [lutetium-177 labelled] has a tissue uptake of 2.08 ± 0.77 %ID (C57 mouse, intestines; 2 h).
With `COc1cccc(OC)c1-c1cc(C(=O)NC2(C(=O)O)C3CC4CC(C3)CC2C4)nn1-c1ccc(C(=O)N(C)CCOCCOCCN(C)C(=O)[C@H](CCCCNC(=O)[C@H](CC(C)C)NC(=O)C2OC2C(=O)O)NC(=O)CN2CCN(CC(=O)[O-])CCN(CC(=O)[O-])CCN(CC(=O)[O-])CC2)cc1C(C)C.[177Lu+3]` (mixture of isomers) the tissue uptake was 1.5 %ID/g (mouse, HT-29 xenograft, HT-29 tumour; 72 h post injection).
`CN(Cc1ccccc1)C(=O)CN1CCN(CC(=O)N(C)Cc2ccccc2)CCN(Cc2cccc(C(=O)[O-])n2)CC1.[44Sc+3]` has a tissue uptake of 1.53 ± 0.66 %ID/g (BALB/c mouse, large intestine; intravenous, 1 h).
`N#C[C@@H]1CC(F)(F)CN1C(=O)CNC(=O)c1ccnc2c(NC(=O)CCOCCOCCOCCOCCOCCOCCNC(=O)[C@H](CCCCNC(=O)CN3CCN(CC(=O)[O-])CCN(CC(=O)[O-])CCN(CC(=O)[O-])CC3)NC(=O)CCCc3ccc(I)cc3)cccc12.[177Lu+3]` gave a tissue uptake of 4.53 ± 0.35 %ID/g (mouse, U-87 MG tumour xenograft, salivary gland; 1 h).
`CCCC[C@H](NC(=O)CNC(=O)CNC(=O)[C@H](CCCCNC(=O)[C@H](CC(=O)O)NC(=O)C(C)c1ccc(CC(C)C)cc1)NC(=O)CN1CCN(CC(=O)O)CCN(CC(=O)O)CCN(CC(=O)O)CC1)C(=O)N[C@H]1CC(=O)NCCCC[C@@H](C(N)=O)NC(=O)[C@H](Cc2c[nH]c3ccccc23)NC(=O)[C@H](CCCNC(=N)N)NC(=O)[C@@H](Cc2ccccc2)NC(=O)[C@H](Cc2c[nH]cn2)NC1=O` (some centres unmarked) [lutetium-177 labelled] gave a tissue uptake of 0.4 ± 0.22 %ID/g (C57 mouse, spleen; intravenous, 2 h, added: 10 µg NDP-MSH co-injection).
The tissue uptake of `O=C([O-])CN1CCN(CC(=O)[O-])CCN(Cc2cccc(C(=O)[O-])n2)CC1.[18F-].[Sc+3]` is reported as 0.1 ± 0.02 %ID/g (BALB/c mouse, large intestine; intravenous, 1 h).
With `COc1ccc(Nc2nc(Nc3ccc(OCCOCC[18F])cc3)ncc2Br)cc1` the tissue uptake was 2.31 ± 0.18 %ID/g (ICR mouse, S180 sarcoma-bearing, blood; intravenous, 370 kBq in 100 µL, 120 min).
The tissue uptake of `N#C[C@@H]1CC(F)(F)CN1C(=O)CNC(=O)c1ccnc2c(NC(=O)[C@H](CCCCNC(=O)CCOCCOCCOCCOCCOCCOCCNC(=O)CN3CCN(CC(=O)[O-])CCN(CC(=O)[O-])CCN(CC(=O)[O-])CC3)NC(=O)CCCc3ccc(I)cc3)cccc12.[177Lu+3]` is reported as 0.01 ± 0.02 %ID/g (mouse, U-87 MG tumour xenograft, brain; 96 h).
`O=C([O-])CN1CCN(CC(=O)[O-])CCN(CC(=O)[O-])CC1.[44Sc+3]` gave a tissue uptake of 0.06 ± 0.01 %ID/g (BALB/c mouse, large intestine; intravenous, 1 h).
The tissue uptake of `Cc1n[nH]c(C)c1CCCOc1cc(C(=O)NCCCCC(NC(=O)CN2CCN(CC(=O)[O-])CCN(CC(=O)[O-])CCN(CC(=O)[O-])CC2)C(=O)NCC2CCC(C(=O)NC(Cc3ccc4ccccc4c3)C(=O)NCCCCC(NC(=O)NC(CCC(=O)O)C(=O)O)C(=O)O)CC2)ccc1F.[68Ga+3]` (centres unmarked) is reported as 8.23 ± 1.24 %ID/g (PET/CT; mouse 22Rv1 xenograft, blood; 1 h).
For `COc1cccc(OC)c1-c1cc(C(=O)NC2(C(=O)O)C3CC4CC(C3)CC2C4)nn1-c1ccc(C(=O)N(C)CCCN(C)CCCN(C)C(=O)[C@H](CCCCNC(=O)[C@H](CC(C)C)NC(=O)C2OC2C(=O)O)NC(=O)CN2CCN(CC(=O)[O-])CCN(CC(=O)[O-])CCN(CC(=O)[O-])CC2)cc1C(C)C.[177Lu+3]` (mixture of isomers), the tissue uptake was 0.032 %ID/g (mouse, HT-29 xenograft, muscle; 72 h post injection).
`CC[C@H](C)[C@H](NC(=O)C[C@H](NC(=O)CN1CCN2CCN(CC1)CC(=O)[O][Al]([18F])[O]C(=O)C2)C(=O)O)C(=O)N[C@H]1CCc2cccc3c2N(C1=O)[C@H](C(=O)NCc1cn[nH]n1)C3` gave a tissue uptake of 0.52 ± 0.25 %ID/g (C57BL/6J mouse, MC-38 tumour, bone; 30 min post injection, anti-PD-1 treated).
With `CN(Cc1ccccc1)C(=O)CN1CCN(CC(=O)[O-])CCN(CC(=O)[O-])CC1.[44Sc+3]` the tissue uptake was 1.54 ± 0.18 %ID/g (BALB/c mouse, small intestine; intravenous, 1 h).
The tissue uptake of `O=C(O)CCCOc1ccc([18F])cc1-c1cc(-c2ccccc2C(F)(F)F)n(-c2ccccc2)n1` is reported as 0.02 ± 0.01 %ID/g (mouse, bladder; intravenous, dose not given, 30 min).
`COc1ccc2c(c1)C(C)(C)C(/C=C/C1=C(Oc3ccc(C(=O)NCCCCOc4cc(CN(Cc5ccccn5)Cc5ccccn5)cc(CN(Cc5ccccn5)Cc5ccccn5)c4)cc3)C(=C/C=C3/N(CCCCS(=O)(=O)[O-])c4ccc(OC)cc4C3(C)C)CCC1)=[N+]2CCCCS(=O)(=O)[O-].O=[N+]([O-])[O-].O=[N+]([O-])[O-].[99Tc+].[C-]#[O+].[C-]#[O+].[C-]#[O+].[Zn+2]` has a tissue uptake of 0.63 %ID/g and 0.96 %ID/g and 1.4 %ID/g and 2.05 %ID/g (BALB/c mouse, Staphylococcus aureus myositis, blood; 12 h).
The tissue uptake of `COc1cccc(OC)c1-c1cc(C(=O)NC2(C(=O)O)C3CC4CC(C3)CC2C4)nn1-c1ccc(C(=O)N(C)CCOCCN(C)C(=O)[C@H](CCCCNC(=O)[C@H](CC(C)C)NC(=O)C2OC2C(=O)O)NC(=O)CN2CCN(CC(=O)[O-])CCN(CC(=O)[O-])CCN(CC(=O)[O-])CC2)cc1C(C)C.[177Lu+3]` (mixture of isomers) is reported as 0.98 %ID/g (mouse HT-29 xenograft, small intestine; 4 h post injection, biodistribution).
`CN(Cc1ccccc1)C(=O)CN1CCN(CC(=O)[O-])CCN(Cc2cccc(C(=O)[O-])n2)CC1.[44Sc+3]` has a tissue uptake of 0.19 ± 0.04 %ID/g (BALB/c mouse, large intestine; intravenous, 1 h).
`[11CH3]N1CCC(NC(=O)c2cc(-c3c(O)cc(O)cc3Oc3ccc([N+](=O)[O-])cc3)on2)CC1` has a tissue uptake of 14.4 ± 0.6 %ID (NMRI mouse, healthy, kidneys; intravenous, 5.5 MBq, 2 min).
`O=C([O-])CN1CCN(CC(=O)[O-])CCN(CC(=O)NCC2CCC(C(=O)NC(Cc3ccc4ccccc4c3)C(=O)NCCCCC(NC(=O)NC(CCC(=O)O)C(=O)O)C(=O)O)CC2)CCN(CC(=O)[O-])CC1.[68Ga+3]` (centres unmarked) has a tissue uptake of 1.13 ± 0.74 %ID/g (mouse 22Rv1 xenograft, kidney; 4 h).
The tissue uptake of `COc1cccc(OC)c1-c1cc(C(=O)NC2(C(=O)O)C3CC4CC(C3)CC2C4)nn1-c1ccc(C(=O)N(C)CCCN(C)C(=O)[C@H](CCCCNC(=O)[C@H](CC(C)C)NC(=O)C2OC2C(=O)O)NC(=O)CN2CCN(CC(=O)[O-])CCN(CC(=O)[O-])CCN(CC(=O)[O-])CC2)cc1C(C)C.[177Lu+3]` (mixture of isomers) is reported as 5.2 %ID/g (mouse, HT-29 xenograft, HT-29 tumour; 4 h post injection).
For `CN(Cc1ccccc1)C(=O)CN1CCN(CC(=O)[O-])CCN(CC(=O)N(C)Cc2ccccc2)CC1.[44Sc+3]`, the tissue uptake was 8.56 ± 0.97 %ID/g (BALB/c mouse, small intestine; intravenous, 1 h).
`COc1ccc(Nc2nc(Nc3ccc(OCCOCCOCC[18F])cc3)ncc2Br)cc1` has a tissue uptake of 2.13 ± 0.14 %ID/g (ICR mouse, S180 sarcoma-bearing, blood; intravenous, 370 kBq in 100 µL, 120 min).
For `O=C([O-])CN1CCN(CC(=O)O)CCN(CC(=O)[O-])CCN(CC(=O)NCC2CCC(C(=O)NC(Cc3ccc4ccccc4c3)C(=O)NCCCCC(NC(=O)NC(CCC(=O)O)C(=O)O)C(=O)O)CC2)CC1.[212Pb+2]` (centres unmarked), tissue uptake read “not detected” (refers to: 212Pb; athymic mouse, C4-2 prostate xenograft, femur; intravenous, dose not given, 2 h).

For quick reference, copied from above:
`CCCC[C@H](NC(=O)CNC(=O)CNC(=O)[C@H](CCCCNC(=O)[C@H](CCN)NC(=O)C(C)c1ccc(CC(C)C)cc1)NC(=O)CN1CCN(CC(=O)O)CCN(CC(=O)O)CCN(CC(=O)O)CC1)C(=O)N[C@H]1CC(=O)NCCCC[C@@H](C(N)=O)NC(=O)[C@H](Cc2c[nH]c3ccccc23)NC(=O)[C@H](CCCNC(=N)N)NC(=O)[C@@H](Cc2ccccc2)NC(=O)[C@H](Cc2c[nH]cn2)NC1=O` (some centres unmarked) [lutetium-177 labelled] has a tissue uptake of 2.08 ± 0.77 %ID (C57 mouse, intestines; 2 h).
With `COc1cccc(OC)c1-c1cc(C(=O)NC2(C(=O)O)C3CC4CC(C3)CC2C4)nn1-c1ccc(C(=O)N(C)CCOCCOCCN(C)C(=O)[C@H](CCCCNC(=O)[C@H](CC(C)C)NC(=O)C2OC2C(=O)O)NC(=O)CN2CCN(CC(=O)[O-])CCN(CC(=O)[O-])CCN(CC(=O)[O-])CC2)cc1C(C)C.[177Lu+3]` (mixture of isomers) the tissue uptake was 1.5 %ID/g (mouse, HT-29 xenograft, HT-29 tumour; 72 h post injection).
